Measurements of several laboratories.
Protocols differ between the studies behind these lines. Numbers after ± are the reported error.

Cc1cc(C)c(CNC(=O)c2cc(Cl)c3c(c2C)O[C@@](C)([C@H]2CC[C@H](N(C)C)CC2)O3)c(=O)[nH]1: “steady-state apparent clearance (unbound)” 621 L/h (human, plasma; oral, dose not given, cycle 1 day 15, mean).
With CN(C)C(=O)c1cc2cnc(Nc3ccc(N4CCNCC4)cn3)nc2n1C1CCCC1 the steady-state clearance was 317 mL/min (human, advanced solid tumours, plasma; oral, 800 mg, day 14, expansion cohort, with: gemcitabine 1000 mg/m2).
CC(C)(C)OC[C@@H]1C(=O)NCCN1C(=O)C[C@H](N)Cc1cc(F)c(F)cc1F has a steady-state Cmax of 6.09 ± 1.65 ng/mL (human, plasma; oral, dose not given, multiple doses, with: empagliflozin).
Cn1cncc1[C@@](N)(c1ccc(Cl)cc1)c1ccc2c(c1)c(-c1cccc(Cl)c1)cc(=O)n2C: “steady-state plasma concentration” 570 ng/mL (human, plasma; 300 mg/m^2/dose, second cohort, median).
CN(CC#N)C(=O)C[C@H](Nc1nc2ccccc2[nH]1)c1cccc(C(F)(F)F)c1: “steady-state volume of distribution” 54.7 ± 12.2 L (human; intravenous infusion, 3 mg/kg, 1 mg/mL formulation).
COc1cc2c(Nc3ccc(Br)cc3F)ncnc2cc1OCC1CCN(C)CC1: “steady-state trough concentration” 558 ± 175 ng/mL (human patients, plasma; oral, 85 mg/m^2, day 42).
O=C(COc1ccc(Cl)cc1)NC12CC(c3nnc([C@H]4C[C@@H](OC(F)(F)F)C4)o3)(C1)C2 has a steady-state Ctrough of 3.73 µM (healthy human both sexes, plasma; oral, 100 mg once daily, day 14, mean).
N#Cc1ccc(C(c2ccc(C#N)cc2)n2cncn2)cc1 has a steady-state concentration of 0.27 ± 0.03 µmol/L (human patients, tumour extracellular fluid; 5 mg daily).

Repeated from above:
With CN(C)C(=O)c1cc2cnc(Nc3ccc(N4CCNCC4)cn3)nc2n1C1CCCC1 the steady-state clearance was 317 mL/min (human, advanced solid tumours, plasma; oral, 800 mg, day 14, expansion cohort, with: gemcitabine 1000 mg/m2).
